# Experimental data of several laboratories.
# Compare with care: the assays were run in different laboratories.
# Target: D(2) dopamine receptor (DRD2, Homo sapiens, UniProt P14416)
# Chain of UniProt P14416 (whole entry, looked up): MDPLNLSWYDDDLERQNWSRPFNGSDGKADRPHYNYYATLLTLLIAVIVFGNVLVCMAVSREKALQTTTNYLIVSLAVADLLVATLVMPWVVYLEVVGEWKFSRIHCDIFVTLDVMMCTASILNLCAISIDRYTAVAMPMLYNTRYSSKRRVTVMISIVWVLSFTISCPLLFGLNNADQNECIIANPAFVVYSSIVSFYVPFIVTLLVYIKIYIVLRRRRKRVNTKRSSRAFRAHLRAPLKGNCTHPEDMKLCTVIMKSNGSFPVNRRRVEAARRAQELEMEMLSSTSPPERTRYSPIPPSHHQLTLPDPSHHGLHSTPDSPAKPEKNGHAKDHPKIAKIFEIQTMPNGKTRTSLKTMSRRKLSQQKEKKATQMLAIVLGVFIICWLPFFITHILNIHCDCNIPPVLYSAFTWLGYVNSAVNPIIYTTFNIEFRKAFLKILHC
SMILES,assay,conditions,inhibition [%]
NS(=O)(=O)c1ccc(CCNCc2ccc(-c3ccc(Cl)cc3)o2)cc1,"enzyme activity, inhibitor",10 µM,23.1
O=C1c2sc(-c3ccc(N4CCC(CO)CC4)nc3F)nc2CCN1c1cccnc1,"ligand displacement, radioligand",1 µM,5
CC(C)Cn1c(SCC(=O)N2CCc3ccccc3C2)nc2cc(Cl)ccc2c1=O,"ligand displacement, radioligand",10 µM,-5
C[Si](C)(C)C[C@@H](CN)CC(=O)O,"ligand displacement, radioligand",75 µM,-4
COCC(=O)N1CCc2cc(-c3csc(NC(=O)c4cc(OC)cc(OC)c4)n3)ccc21,,10 µM,-3
Cc1ccnc(OC[C@H]2CN(CCN3CCc4ccccc43)CCO2)c1,"ligand displacement, radioligand",10 µM,0.3
COc1ccc(C#CC2=C[C@H]3C[C@@]4(OC(=O)C=C24)[C@H]2CC[C@H](C(OC)OC)N32)cc1,"radioligand binding, radioligand displacement",10 µM,16
COc1cc(C(C)=O)ccc1OCC(O)CN1CCN(c2cccc(Cl)c2)CC1 (stereo not drawn),"enzyme activity, inhibitor",10 µM,10.2
C[Si]1(C[C@H](CN)CC(=O)O)CCCC1,"ligand displacement, radioligand",70 µM,3
CC1Cc2ccccc2N1C(=O)CN1CCN(c2ccccc2)CC1 (stereo not drawn),"ligand displacement, radioligand",10 µM,2
CCC(=O)N(C)c1ccc(Cl)c(Cl)c1,"ligand displacement, radioligand",10 µM,< 10
COc1ccc(-c2csc3ncnc(NCCCN4CCN(c5ccccc5)CC4)c23)cc1,"enzyme activity, inhibitor",10 µM,62.4
COc1ccc(C(=O)Nc2c(-c3cccs3)nc3ccccn23)cc1,"ligand displacement, radioligand",10 µM,< 50
COc1ccc(S(=O)(=O)N2CCc3ccccc3C2)cc1N1CCN(C(=O)c2ccc(F)cc2C(F)(F)F)CC1,"ligand displacement, radioligand",1 µM,-4.4
NS(=O)(=O)c1ccc(CCNCc2ccc(-c3ccc(Br)cc3)o2)cc1,"enzyme activity, inhibitor",10 µM,29.5

# Excerpt of the above:
SMILES,assay,conditions,inhibition [%]
CC1Cc2ccccc2N1C(=O)CN1CCN(c2ccccc2)CC1 (stereo not drawn),"ligand displacement, radioligand",10 µM,2
NS(=O)(=O)c1ccc(CCNCc2ccc(-c3ccc(Br)cc3)o2)cc1,"enzyme activity, inhibitor",10 µM,29.5
